# Measured values collected from several papers.
# Lines come from different studies, so protocols differ. Several values in a cell are separate wells, animals, samples, runs or records. Numbers after ± are the reported error.
Compound,tested on,test,test system,setting,how to read,quantity,result
COP(=O)(OC)Oc1ccc([N+](=O)[O-])cc1,"muscarinic receptors, rat",radioligand displacement,aging cortex membranes,"90 min, 21 °C, with: 1 nM [3H]oxotremorine-M",,IC50,0.064 µM
CC[C@H](C)[C@H](NC(=O)CNC(=O)CNC(=O)[C@@H](NC(=O)[C@@H](N)CCCNC(=N)N)[C@@H](C)CC)C(=O)N[C@@H](CC(C)C)C(=O)N[C@@H](CCCCN)C(=O)N[C@H](C(=O)N[C@@H](CC(C)C)C(=O)N[C@@H](CCCCN)C(=O)N[C@@H](CCCCN)C(=O)N[C@H](C(=O)N[C@@H](CC(C)C)C(=O)N1CCC[C@H]1C(=O)N[C@@H](CCCCN)C(=O)N[C@@H](C)C(=O)N[C@H](C(=O)N[C@@H](CCCCN)C(=O)N[C@@H](C)C(=O)N[C@@H](C)C(=O)N[C@@H](C)C(=O)N[C@@H](CCC(=O)O)C(=O)N[C@@H](CCSC)C(=O)N[C@@H](C)C(=O)N1CCC[C@H]1C(=O)N1CCC[C@H]1C(=O)N[C@@H](CCC(N)=O)C(=O)N[C@@H](CC(N)=O)C(=O)N[C@@H](CCC(=O)O)C(=O)O)[C@@H](C)CC)C(C)C)[C@@H](C)CC,Drosophila melanogaster,"calcium response, calcium imaging","class III da neurons, ppk1.9-Gal4 UAS-GCaMP6f",,,EC50,14.7 µM
CCOP(=S)(OCC)Oc1nc(Cl)c(Cl)cc1Cl,ReNcell VM,"mitochondrial membrane potential, TMRM",,24 h,,IC50,5.5 ± 0.23 µM
COc1cc2ncnc(Nc3cccc(Cl)c3)c2cc1OC,Monkeypox virus,viral infection,replication-deficient,0.046 µM,baseline: untreated,infection,99.7% and 100% and 108%
O=c1ccn([C@@H]2O[C@](F)(CO)[C@@H](O)[C@H]2O)c(=O)[nH]1,Mammarenavirus lassaense,viral replication,"HeLa, clade III Nigeria-383",,,EC50,7.97 µM
COc1ccc2cc3c(N)nn(C(=O)Cc4c[nH]c5ccccc45)c3nc2c1,MERS-CoV spike VSV pseudovirus,pseudovirus entry,,10 µM,,inhibition,44%
CC[C@H](C)[C@H](NC(=O)[C@H](CCC(N)=O)NC(=O)[C@H](CC(=O)O)NC(=O)[C@@H](NC(=O)[C@H](C)NC(=O)[C@H](C)NC(=O)[C@H](CC(N)=O)NC(=O)[C@@H](NC(=O)[C@@H](NC(=O)[C@H](C)NC(=O)[C@H](CCC(=O)O)NC(=O)CNC(=O)[C@H](C)NC(=O)[C@H](C)NC(=O)[C@H](CCC(=O)O)NC(=O)[C@H](C)NC(=O)[C@H](C)NC(=O)CNC(=O)[C@H](CCCCN)NC(=O)CNC(=O)[C@H](Cc1ccccc1)NC(=O)[C@H](CO)NC(=O)[C@@H](NC(=O)[C@H](CC(C)C)NC(=O)[C@@H](NC(=O)[C@H](CC(N)=O)NC(=O)[C@H](CCCNC(=N)N)NC(=O)CNC(=O)[C@H](Cc1ccccc1)NC(=O)[C@H](CCCCN)NC(=O)[C@H](CO)NC(=O)CNC(=O)[C@H](CCCCN)NC(=O)[C@H](CCCNC(=N)N)NC(=O)[C@H](CCCCN)NC(=O)[C@H](CCCCN)NC(=O)[C@H](CCCNC(=N)N)NC(=O)[C@@H](N)CCCCN)[C@@H](C)CC)[C@@H](C)O)[C@@H](C)O)C(C)C)C(C)C)C(=O)N[C@@H](CC(C)C)C(=O)N[C@@H](CCC(=O)O)C(=O)N[C@@H](C)C(=O)N[C@@H](CCC(N)=O)C(=O)NCC(=O)N[C@@H](CCC(=O)O)C(=O)NCC(=O)N[C@@H](CCC(=O)O)C(=O)N[C@@H](Cc1ccc(O)cc1)C(=O)O,Drosophila melanogaster,"calcium response, calcium imaging","class III da neurons, ppk1.9-Gal4 UAS-GCaMP6f",,,EC50,2.29 µM
CC(C)C[C@@H]1NC(=O)[C@H](Cc2c[nH]cn2)NC(=O)[C@H](CCCCN)NC(=O)[C@@H]2CSSC[C@H](NC(=O)[C@@H](N)[C@@H](C)O)C(=O)N[C@@H](CCCNC(=N)N)C(=O)N[C@@H](Cc3ccc(O)cc3)C(=O)N[C@@H](CC(C)C)C(=O)N[C@@H](Cc3ccccc3)C(=O)NCC(=O)NCC(=O)N[C@H]3CSSC[C@H](NC(=O)[C@H](C)NC1=O)C(=O)N[C@@H](CCCNC(=N)N)C(=O)N[C@@H](CO)C(=O)N[C@@H](CC(=O)O)C(=O)NCC(=O)N[C@@H](CCCCN)C(=O)N[C@@H](Cc1ccc(O)cc1)C(=O)N[C@H](C(=O)N[C@@H](C)C(=O)N[C@@H](Cc1c[nH]c4ccccc14)C(=O)N[C@@H](CC(=O)O)C(=O)NCC(=O)N[C@H](C(=O)N[C@@H](Cc1ccccc1)C(=O)O)[C@@H](C)O)CSSC[C@H](NC(=O)[C@H](CC(=O)O)NC(=O)[C@H](C)NC(=O)[C@H]([C@@H](C)O)NC(=O)[C@H]([C@@H](C)O)NC(=O)[C@H](CCCCN)NC3=O)C(=O)N2,,Trp fluorescence titration,POPC:POPG LUVs,"pH 7, 2 µM toxin",,mole fraction partition coefficient,3.4e+06 ± 600000
